# Results pooled from the literature.
# Organism: Acinetobacter baumannii
SMILES,test,system,conditions,MIC
CN[C@H](CC(C)C)C(=O)N[C@H]1C(=O)N[C@@H](CC(N)=O)C(=O)N[C@H]2C(=O)N[C@H]3C(=O)N[C@H](C(=O)N[C@H](C(=O)NCc4cn(CCCCC(=O)N[C@H](C(=O)N[C@@H](CCN)C(=O)N[C@H]5CCNC(=O)[C@H]([C@@H](C)O)NC(=O)[C@H](CCN)NC(=O)[C@H](CCN)NC(=O)[C@H](CC(C)C)NC(=O)[C@@H](CC(C)C)NC(=O)[C@H](CCN)NC5=O)[C@@H](C)O)nn4)c4cc(O)cc(O)c4-c4cc3ccc4O)[C@H](O)c3ccc(c(Cl)c3)Oc3cc2cc(c3O[C@@H]2O[C@H](CO)[C@@H](O)[C@H](O)[C@H]2O[C@H]2C[C@](C)(N)[C@H](O)[C@H](C)O2)Oc2ccc(cc2Cl)[C@H]1O,broth microdilution,BAA-747,,25 µM
N=C(N)NCCC[C@@H]1NC(=O)[C@H](CCCNC(=N)N)NC(=O)[C@@H](CCCNC(=N)N)NC(=O)[C@@H](CCCNC(=N)N)NC(=O)[C@@H](C(c2ccccc2)c2ccccc2)NC(=O)[C@H](Cc2c[nH]c3ccccc23)NC(=O)[C@@H](C(c2ccccc2)c2ccccc2)NC1=O,,"NCTC 13304, carbapenem-resistant",,8 µg/mL
CC[C@H](C)[C@H](NC(=O)[C@H](CCCNC(=N)N)NC(=O)[C@@H](NC(=O)[C@@H](NC(=O)[C@H](CCCNC(=N)N)NC(=O)[C@H](CCCCN)NC(=O)[C@H](Cc1ccccc1)NC(=O)[C@H](CCCNC(=N)N)NC(=O)[C@H](CCCCN)NC(=O)[C@@H](NC(=O)[C@@H](N)CCCCN)[C@@H](C)CC)[C@@H](C)CC)C(C)C)C(=O)N[C@@H](CCCCN)C(=O)N[C@@H](Cc1ccccc1)C(=O)N[C@@H](CC(C)C)C(=O)N[C@@H](CCCNC(=N)N)C(=O)N[C@H](C(=O)N[C@H](C(=O)N[C@@H](CCCNC(=N)N)C(=O)N[C@@H](CCCNC(=N)N)C(N)=O)C(C)C)C(C)C,broth microdilution,18,,1.25 µg/mL
CCCCCCCCCCCCCCCCCCn1cc(CN(CCC(=O)NCCN(CCC(=O)NCCN(CCC(=O)NCCN(C)C)CCC(=O)NCCN(C)C)CCC(=O)NCCN(CCC(=O)NCCN(C)C)CCC(=O)NCCN(C)C)CCC(=O)NCCN(CCC(=O)NCCN(CCC(=O)NCCN(C)C)CCC(=O)NCCN(C)C)CCC(=O)NCCN(CCC(=O)NCCN(C)C)CCC(=O)NCCN(C)C)nn1,,ΔlpxC LPS-deficient,,6 µg/mL
CCCCCCCC(=O)N[C@@H](CCN)C(=O)N[C@H](C(=O)N[C@@H](CCN)C(=O)N[C@H]1CCNC(=O)[C@H]([C@@H](C)O)NC(=O)[C@H](CCN)NC(=O)[C@H](CCN)NC(=O)[C@H](C)NC(=O)[C@@H](Cc2ccccc2)NC(=O)[C@H](CCN)NC1=O)[C@@H](C)O,CLSI broth microdilution,"246-01-C.246, CAMHB","20 h, 37 °C",0.5 µg/mL
CC[C@H](C)[C@@H]1NC(=O)[C@@H](CC(C)C)NC(=O)[C@H](CCN)NC(=O)[C@@H](NC(=O)[C@@H](CO)NC(=O)[C@@H](NC(=O)[C@H](CCN)NC(=O)c2ccc(-c3ccccc3)cc2)[C@@H](C)O)CCNC(=O)[C@H](CC(C)C)NC(=O)[C@H](CCN)NC(=O)[C@H](CCN)NC1=O,broth microdilution,colistin-resistant isolates,,1 to 2 µg/mL
CC[C@H](C)[C@H](NC(=O)[C@@H](CCCNC(=N)N)NC(=O)[C@H](CCCNC(=N)N)NC(=O)[C@H](Cc1ccccc1)NC(=O)[C@H](Cc1c[nH]c2ccccc12)NC(=O)[C@H](CCCNC(=N)N)NC(=O)[C@@H]1CCCN1C(=O)[C@H](CCCNC(=N)N)NC(=O)[C@@H]1CCCN1C(=O)[C@H](CC(C)C)NC(=O)[C@H](Cc1ccc(O)cc1)NC(=O)[C@@H]1CCCN1C(=O)[C@@H]1CCCN1C(=O)[C@H](CCCCN)NC(=O)[C@H](CC(=O)O)NC(=O)[C@@H](N)C(C)C)C(=O)N[C@@H](Cc1ccc(O)cc1)C(=O)N[C@@H](CC(N)=O)C(=O)N[C@H](CCCNC(=N)N)C(N)=O,broth microdilution,DSM 30008,"18 h, 37 °C, 25% MHB2",8 µg/mL
CN[C@H](CC(C)C)C(=O)N[C@H]1C(=O)N[C@@H](CC(N)=O)C(=O)N[C@H]2C(=O)N[C@H]3C(=O)N[C@H](C(=O)N[C@H](C(=O)O)c4cc(O)cc(O)c4-c4cc3ccc4O)[C@H](O)c3ccc(c(Cl)c3)Oc3cc2cc(c3O[C@@H]2O[C@H](CO)[C@@H](O)[C@H](O)[C@H]2O[C@H]2C[C@](C)(NCc3ccc(OCc4cn(CC(=O)N[C@H](C(=O)N[C@@H](CCN)C(=O)N[C@H]5CCNC(=O)[C@H]([C@@H](C)O)NC(=O)[C@H](CCN)NC(=O)[C@H](CCN)NC(=O)[C@H](CC(C)C)NC(=O)[C@@H](CC(C)C)NC(=O)[C@H](CCN)NC5=O)[C@@H](C)O)nn4)c(OC)c3)[C@H](O)[C@H](C)O2)Oc2ccc(cc2Cl)[C@H]1O,broth microdilution,BAA-747,,12 µM
CCn1c(-c2ccc(-c3ccc(OC)cc3)cc2)c(-c2ccc(-c3ccc(OC)cc3)cc2)n(CC)c1=[Se],broth microdilution,carbapenem-resistant,24 h,> 40 µM
CC[C@H](C)[C@H](NC(=O)[C@@H](CCCNC(=N)N)NC(=O)[C@H](CCCNC(=N)N)NC(=O)[C@H](CCC(=O)O)NC(=O)[C@H](Cc1c[nH]c2ccccc12)NC(=O)[C@H](CCCNC(=N)N)NC(=O)[C@@H]1CCCN1C(=O)[C@H](CCCNC(=N)N)NC(=O)[C@@H]1CCCN1C(=O)[C@H](CC(C)C)NC(=O)[C@H](Cc1ccc(O)cc1)NC(=O)[C@@H]1CCCN1C(=O)[C@@H]1CCCN1C(=O)[C@H](CCCCN)NC(=O)[C@H](CC(=O)O)NC(=O)[C@@H](N)C(C)C)C(=O)N[C@@H](Cc1ccc(O)cc1)C(=O)N[C@@H](CC(N)=O)C(=O)N[C@H](CCCNC(=N)N)C(N)=O,broth microdilution,DSM 30008,"18 h, 37 °C, 25% MHB2",128 µg/mL
CCCCCCCC(=O)N[C@@H](CCN)C(=O)N[C@@H](C)C(=O)N[C@@H](CCN)C(=O)N[C@H]1CCNC(=O)[C@H]([C@@H](C)O)NC(=O)[C@H](CCN)NC(=O)[C@H](CCN)NC(=O)[C@H](CC(C)C)NC(=O)[C@@H](Cc2ccccc2)NC(=O)[C@H](CCN)NC1=O,CLSI broth microdilution,"246-01-C.246, CAMHB","20 h, 37 °C",> 512 µg/mL
CC[C@H](C)[C@H](NC(=O)[C@@H](CCCNC(=N)N)NC(=O)[C@H](CCCNC(=N)N)NC(=O)[C@H](Cc1ccc(O)cc1)NC(=O)[C@H](Cc1c[nH]c2ccccc12)NC(=O)[C@H](CCCNC(=N)N)NC(=O)[C@@H]1CCCN1C(=O)[C@H](CCCNC(=N)N)NC(=O)[C@@H]1CCCN1C(=O)[C@H](CC(C)C)NC(=O)[C@H](Cc1ccc(O)cc1)NC(=O)[C@@H]1CCCN1C(=O)[C@@H]1CCCN1C(=O)[C@H](CCCCN)NC(=O)[C@H](CC(=O)O)NC(=O)[C@@H](N)C(C)C)C(=O)N[C@@H](Cc1ccc(O)cc1)C(=O)N[C@@H](CC(N)=O)C(=O)N[C@H](CCCNC(=N)N)C(N)=O,broth microdilution,DSM 30008,"18 h, 37 °C, 25% MHB2",16 µg/mL
CCCCCCCC(=O)N[C@@H](CCN)C(=O)N[C@H](C(=O)N[C@@H](CCN)C(=O)N[C@H]1CCNC(=O)[C@H]([C@@H](C)O)NC(=O)[C@H](CCN)NC(=O)[C@H](CCN)NC(=O)[C@H](CC(C)C)NC(=O)[C@@H](Cc2c(F)c(F)c(F)c(F)c2F)NC(=O)[C@H](CCN)NC1=O)[C@@H](C)O,broth microdilution,colistin-resistant isolates,,0.5 to 1 µg/mL
C=C1NC(=O)C2CSCC3NC(=O)C(CSC(C)C(NC(=S)C(Cc4cnc[nH]4)NC(=O)c4csc(C(C)NC(C)=O)n4)C(=O)N[C@H](CC(C)C(=O)NC(=O)CC(C(=O)O)NC(=O)C(C)NC3=O)C(=O)N2)NC(=O)[C@@H]2CCCN2C(=O)[C@@H](CC(C)C)NC1=O (stereo partly drawn),bacterial growth,09987,,> 32 µg/mL
CC(=O)N[C@H](Cc1ccc(Cl)cc1)C(=O)N[C@@H](CCN)C(=O)N[C@H](C(=O)N[C@@H](CCN)C(=O)N[C@H]1CCNC(=O)[C@H]([C@@H](C)O)NC(=O)[C@H](CCN)NC(=O)[C@H](CCN)NC(=O)[C@H](CC(C)C)NC(=O)[C@@H](Cc2ccccc2)NC(=O)[C@H](CCN)NC1=O)[C@@H](C)O,broth microdilution,"ATCC 19606, colistin-susceptible",,0.5 to 1 µg/mL
CN[C@@H]1[C@H](O)[C@H](NC)[C@H]2O[C@]3(O)[C@H](O[C@@H]2[C@H]1O)O[C@H](C)C[C@H]3NC(=O)Cc1ccc(F)cn1,"microbial growth, broth dilution",ATCC19606,,> 200 µg/mL
CC[C@H](C)[C@H](NC(=O)[C@@H](CCCNC(=N)N)NC(=O)[C@H](CCCNC(=N)N)NC(=O)[C@@H]1CCCN1C(=O)[C@@H]1CCCN1C(=O)[C@H](CCCNC(=N)N)NC(=O)[C@@H]1CCCN1C(=O)[C@H](CCCNC(=N)N)NC(=O)[C@@H]1CCCN1C(=O)[C@H](CC(C)C)NC(=O)[C@H](Cc1ccc(O)cc1)NC(=O)[C@@H]1CCCN1C(=O)[C@@H]1CCCN1C(=O)[C@H](CCCCN)NC(=O)[C@H](CC(=O)O)NC(=O)[C@@H](N)C(C)C)C(=O)N[C@@H](Cc1cc(I)c(O)c(I)c1)C(=O)N[C@@H](CC(N)=O)C(=O)N[C@H](CCCNC(=N)N)C(N)=O,broth microdilution,DSM 30008,"18 h, 37 °C, 25% MHB2",32 µg/mL
CC(=O)N[C@H](Cc1ccc(C(F)(F)F)cc1)C(=O)N[C@@H](CCN)C(=O)N[C@H](C(=O)N[C@@H](CCN)C(=O)N[C@H]1CCNC(=O)[C@H]([C@@H](C)O)NC(=O)[C@H](CCN)NC(=O)[C@H](CCN)NC(=O)[C@H](CC(C)C)NC(=O)[C@@H](Cc2ccccc2)NC(=O)[C@H](CCN)NC1=O)[C@@H](C)O,broth microdilution,"ATCC 19606, colistin-susceptible",,0.5 to 2 µg/mL

# Some of these lines once more:
SMILES,test,system,conditions,MIC
CC[C@H](C)[C@H](NC(=O)[C@@H](CCCNC(=N)N)NC(=O)[C@H](CCCNC(=N)N)NC(=O)[C@H](CCC(=O)O)NC(=O)[C@H](Cc1c[nH]c2ccccc12)NC(=O)[C@H](CCCNC(=N)N)NC(=O)[C@@H]1CCCN1C(=O)[C@H](CCCNC(=N)N)NC(=O)[C@@H]1CCCN1C(=O)[C@H](CC(C)C)NC(=O)[C@H](Cc1ccc(O)cc1)NC(=O)[C@@H]1CCCN1C(=O)[C@@H]1CCCN1C(=O)[C@H](CCCCN)NC(=O)[C@H](CC(=O)O)NC(=O)[C@@H](N)C(C)C)C(=O)N[C@@H](Cc1ccc(O)cc1)C(=O)N[C@@H](CC(N)=O)C(=O)N[C@H](CCCNC(=N)N)C(N)=O,broth microdilution,DSM 30008,"18 h, 37 °C, 25% MHB2",128 µg/mL
